Measurements collected from several papers.
Numbered parts are unrelated; each lists some results of a single study.

Set 1
Target: Centromere-binding protein 1, full length, His-tagged (CBF1, Saccharomyces cerevisiae, UniProt P17106, residues 1-351)
Sequence of UniProt P17106 (whole entry, looked up): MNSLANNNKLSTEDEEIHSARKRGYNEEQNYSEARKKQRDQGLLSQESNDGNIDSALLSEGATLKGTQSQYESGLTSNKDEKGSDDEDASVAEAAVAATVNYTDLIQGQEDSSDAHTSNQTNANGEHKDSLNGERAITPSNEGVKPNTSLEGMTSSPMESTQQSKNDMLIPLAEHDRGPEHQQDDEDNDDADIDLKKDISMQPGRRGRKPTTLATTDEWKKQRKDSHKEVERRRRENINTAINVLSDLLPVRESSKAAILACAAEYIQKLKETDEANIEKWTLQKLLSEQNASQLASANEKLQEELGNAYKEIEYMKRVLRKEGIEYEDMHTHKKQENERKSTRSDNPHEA
Technique: competition protein-binding microarray
Molecule type: double-stranded DNA, one strand shown
Sample: in vitro
Concentration: 2 µM
Notes: whole 60-bp probe, lowest competitor level
Added: Pho4 competitor, 0.05 µM
Direction: higher = stronger binding
Constant ends, left off below: … GTCTTGATTCGCTTGACGCTGCTG
| Sequence | fluorescence intensity [a.u.] |
| --- | --- |
| ATGGGTCTGTTTACTCATGTGACGCTCTATGCGCTG | 357 |
| GAACCGGTAAGCCTACACGTCTAGGTGCATTCAACG | 54.6 |
| TATATTTCTTTCCATCACGTGCTTTAAAAATAATTA | 11000 |
| AAAGCGGTAATTTGTAAAGTGGGTGCAGATATCTAT | 69.5 |
| TAAAGTGCCCGCCATCACGTCACTTCTTCCTACAGA | 77.1 |
| TGCGCAACAACTTGCGCTGTGGGTGTATGTCTAGAA | 57.9 |
| CGGGGTTAAGTTTGAATTGTGGGTGGCTTGCAGCAG | 70.7 |

Set 2
Target: Sal-like protein 4, full length isoform A (SALL4, Homo sapiens, UniProt Q9UJQ4, residues 1-1053)
Sequence of UniProt Q9UJQ4 (whole entry, looked up): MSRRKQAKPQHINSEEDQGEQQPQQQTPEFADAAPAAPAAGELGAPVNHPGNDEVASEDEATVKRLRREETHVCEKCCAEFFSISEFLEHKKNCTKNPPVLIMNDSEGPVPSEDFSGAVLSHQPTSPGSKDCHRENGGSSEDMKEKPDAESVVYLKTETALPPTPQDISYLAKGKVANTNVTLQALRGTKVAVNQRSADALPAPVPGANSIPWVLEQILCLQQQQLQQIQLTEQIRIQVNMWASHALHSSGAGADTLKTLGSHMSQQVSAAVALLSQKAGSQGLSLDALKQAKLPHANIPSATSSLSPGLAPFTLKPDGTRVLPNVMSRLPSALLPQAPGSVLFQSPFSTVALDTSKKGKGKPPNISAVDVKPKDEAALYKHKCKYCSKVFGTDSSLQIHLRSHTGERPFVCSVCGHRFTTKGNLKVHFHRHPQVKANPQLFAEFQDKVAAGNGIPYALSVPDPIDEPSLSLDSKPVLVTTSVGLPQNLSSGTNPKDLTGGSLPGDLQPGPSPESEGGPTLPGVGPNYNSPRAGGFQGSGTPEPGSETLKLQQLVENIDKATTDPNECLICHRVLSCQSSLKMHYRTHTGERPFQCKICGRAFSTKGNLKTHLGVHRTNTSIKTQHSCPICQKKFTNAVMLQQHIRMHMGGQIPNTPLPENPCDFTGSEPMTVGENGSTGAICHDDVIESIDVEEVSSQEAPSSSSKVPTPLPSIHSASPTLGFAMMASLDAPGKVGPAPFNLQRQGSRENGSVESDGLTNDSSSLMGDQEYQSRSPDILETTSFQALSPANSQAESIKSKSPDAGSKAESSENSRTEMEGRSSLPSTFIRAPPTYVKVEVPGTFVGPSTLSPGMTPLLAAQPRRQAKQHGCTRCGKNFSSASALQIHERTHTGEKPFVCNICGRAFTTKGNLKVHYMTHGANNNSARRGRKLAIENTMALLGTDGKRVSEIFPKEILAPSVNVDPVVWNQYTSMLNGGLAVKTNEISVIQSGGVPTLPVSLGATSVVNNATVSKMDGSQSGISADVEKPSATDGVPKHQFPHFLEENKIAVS
Technique: universal PBM
Molecule type: double-stranded DNA, one strand shown
Sample: in vitro
Concentration: 600 nM
Notes: 8-mer, flanks averaged, mean of replicates
Direction: higher = stronger binding
| Sequence | E-score |
| --- | --- |
| AATCATGC | -0.0814 |
| GAAATGTC | 0.0492 |
| CTCAAAAG | 0.0282 |
| ACAGCAGG | 0.0129 |
| CACGAGCA | -0.0615 |
| CACTGCCG | -0.218 |
| CTAGTCAG | -0.0954 |
| GAGGTTCA | -0.0111 |
| ACGGAAAG | 0.0168 |

Set 3
Target: Histone acetyltransferase KAT6A, both winged helices, GST fusion (KAT6A, Homo sapiens, UniProt Q92794, residues 1-181)
Technique: protein binding microarray
Molecule type: double-stranded DNA, one strand shown
Sample: in vitro
Concentration: not given
Notes: 8-mer, flanks averaged, mean of 2 arrays, mostly near background
Reference: not given
Direction: higher = stronger binding
Residues (chain): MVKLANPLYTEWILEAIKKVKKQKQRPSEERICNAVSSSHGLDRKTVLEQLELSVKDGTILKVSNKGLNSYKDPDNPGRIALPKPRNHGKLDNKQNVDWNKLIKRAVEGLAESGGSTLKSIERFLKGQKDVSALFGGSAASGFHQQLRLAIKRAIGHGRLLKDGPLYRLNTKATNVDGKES
| Sequence | E-score |
| --- | --- |
| CAGGCACG | 0.059 |
| AAGTGAGG | -0.218 |
| CCAGTCAG | -0.0799 |
| AGTTCAGC | -0.169 |
| GCGGCAAC | 0.246 |
| ATACATCG | 0.000935 |
| ACAAATCT | -0.101 |
| ACGCATCC | 0.116 |
| ACTGATCC | -0.0619 |

Mixed results
| Substance | target | test | system | conditions | scale | measurement | result |
| --- | --- | --- | --- | --- | --- | --- | --- |
| PhoQ, residues 284 288 289 292 302 303 HSYLQF | PhoP, residues 12 14 15 18 19 STHWV (Escherichia coli, UniProt P23836) | Sort-seq, item: YFP reporter | E. coli | PhoQ-PhoP variant library, added: 10 µM Mg2+ | reference: high Mg2+ state, higher = stronger signaling | fold induction | 0.759 |

For quick reference, copied from above (set 3):
| Sequence | E-score |
| --- | --- |
| CAGGCACG | 0.059 |
| AAGTGAGG | -0.218 |
| CCAGTCAG | -0.0799 |
